Results gathered from unrelated publications.
A part holds a random share of what one study measured. Values joined by “and” are separate records of one study, mostly repeats; a detail may differ.
Sequence of UniProt P10721 (whole entry, unmodified, looked up): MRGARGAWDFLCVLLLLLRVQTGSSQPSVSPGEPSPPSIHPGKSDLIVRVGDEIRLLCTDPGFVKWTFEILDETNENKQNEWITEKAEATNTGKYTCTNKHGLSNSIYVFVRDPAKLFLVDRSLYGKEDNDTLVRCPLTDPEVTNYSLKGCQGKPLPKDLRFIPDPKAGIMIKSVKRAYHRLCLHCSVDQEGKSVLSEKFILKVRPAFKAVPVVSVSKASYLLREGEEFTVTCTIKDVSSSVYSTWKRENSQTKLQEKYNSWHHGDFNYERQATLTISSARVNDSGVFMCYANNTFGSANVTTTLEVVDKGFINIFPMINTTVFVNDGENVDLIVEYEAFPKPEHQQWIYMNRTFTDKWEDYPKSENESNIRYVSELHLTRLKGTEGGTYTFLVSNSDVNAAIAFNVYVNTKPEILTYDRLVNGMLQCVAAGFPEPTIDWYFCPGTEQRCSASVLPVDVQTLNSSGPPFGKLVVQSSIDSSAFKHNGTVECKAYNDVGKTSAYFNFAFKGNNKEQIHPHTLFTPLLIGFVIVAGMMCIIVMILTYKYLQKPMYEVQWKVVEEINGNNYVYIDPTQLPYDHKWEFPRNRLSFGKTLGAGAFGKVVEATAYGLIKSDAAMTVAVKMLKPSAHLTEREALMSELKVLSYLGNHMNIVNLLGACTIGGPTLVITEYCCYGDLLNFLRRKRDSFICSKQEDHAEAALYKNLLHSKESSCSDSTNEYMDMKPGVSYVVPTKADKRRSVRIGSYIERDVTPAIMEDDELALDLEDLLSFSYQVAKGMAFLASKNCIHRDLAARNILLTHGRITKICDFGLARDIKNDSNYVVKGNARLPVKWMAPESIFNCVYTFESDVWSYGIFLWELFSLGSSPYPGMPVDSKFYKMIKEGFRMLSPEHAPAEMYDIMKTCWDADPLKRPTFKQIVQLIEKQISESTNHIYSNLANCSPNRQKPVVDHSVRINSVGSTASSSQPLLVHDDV
Sequence of UniProt Q92772 (whole entry, looked up): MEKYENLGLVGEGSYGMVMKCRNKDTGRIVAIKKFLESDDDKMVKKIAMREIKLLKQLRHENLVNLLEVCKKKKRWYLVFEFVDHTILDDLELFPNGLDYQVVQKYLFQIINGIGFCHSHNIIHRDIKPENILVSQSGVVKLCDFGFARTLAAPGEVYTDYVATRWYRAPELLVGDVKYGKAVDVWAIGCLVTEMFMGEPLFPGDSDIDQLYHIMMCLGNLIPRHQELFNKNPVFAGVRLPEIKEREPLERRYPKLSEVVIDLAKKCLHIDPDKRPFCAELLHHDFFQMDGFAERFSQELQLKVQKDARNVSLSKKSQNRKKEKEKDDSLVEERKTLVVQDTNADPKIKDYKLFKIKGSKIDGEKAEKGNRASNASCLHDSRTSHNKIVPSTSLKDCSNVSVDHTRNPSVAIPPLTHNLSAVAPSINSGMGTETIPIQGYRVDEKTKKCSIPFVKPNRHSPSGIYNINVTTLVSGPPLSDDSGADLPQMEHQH

Series 1
Structure (SMILES): NC/C(=C\F)COc1ccc(Cl)c(-c2cc(=O)[nH]c(=S)n2CC(N)=O)c1
Target: Myeloperoxidase (MPO, Homo sapiens, UniProt P05164)
Sequence of UniProt P05164 (whole entry, looked up): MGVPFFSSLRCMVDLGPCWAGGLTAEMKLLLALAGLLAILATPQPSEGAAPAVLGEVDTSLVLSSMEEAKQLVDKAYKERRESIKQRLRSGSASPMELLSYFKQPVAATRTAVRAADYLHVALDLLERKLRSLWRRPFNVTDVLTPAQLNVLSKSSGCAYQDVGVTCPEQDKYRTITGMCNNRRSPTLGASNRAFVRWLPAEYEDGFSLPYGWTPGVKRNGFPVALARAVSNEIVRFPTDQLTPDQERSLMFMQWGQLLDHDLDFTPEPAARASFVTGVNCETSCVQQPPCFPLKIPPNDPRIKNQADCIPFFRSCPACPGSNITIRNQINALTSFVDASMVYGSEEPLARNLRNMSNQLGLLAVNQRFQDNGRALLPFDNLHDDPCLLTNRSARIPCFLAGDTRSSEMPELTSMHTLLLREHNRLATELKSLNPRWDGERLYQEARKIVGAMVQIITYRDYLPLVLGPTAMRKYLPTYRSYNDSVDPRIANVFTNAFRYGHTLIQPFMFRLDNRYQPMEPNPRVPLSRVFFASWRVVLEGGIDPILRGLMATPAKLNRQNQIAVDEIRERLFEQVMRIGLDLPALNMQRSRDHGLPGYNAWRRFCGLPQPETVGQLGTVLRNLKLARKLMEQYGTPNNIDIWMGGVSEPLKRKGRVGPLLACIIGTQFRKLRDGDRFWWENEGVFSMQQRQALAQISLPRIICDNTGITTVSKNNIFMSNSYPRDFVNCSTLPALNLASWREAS
Effect on: enzyme activity
Action: inhibitor
Method: fluorescence
tested at | inhibition
200 pM | -25.5%
0.5556 µM | 72%
1.667 µM | 81.6%
500 pM | -18.7% and -17.5%
800 pM | -6.17%
61.7 nM | 30.1%
20.6 nM | 10.3%
2.3 nM | -2.51%

Series 2
Structure (SMILES): N#C/C=C/CNCCCCN1c2ccccc2CCc2ccc(Cl)cc21.O=C(O)/C=C\C(=O)O
Cell line: NCI-H292
Method: CellTiter-Glo
Time: 72 h
tested at | viability
0.05 µM | 105% and 107%
50 µM | 0.106% and -0.00477% and 0.0273%
0.5 µM | 105% and 104% and 102%
0.005 µM | 106% and 103% and 104%
5 µM | 62.4% and 53.6% and 54%

Series 3
SMILES: C[C@@H]1CN(c2ccc(-c3cc(C(=O)NCCOCCOCCOCCOCCNC(=O)/C=C/c4[nH]cc(C(=O)N[C@@H](CC(N)=O)c5ccc(F)c(Cl)c5)c4-c4ccc(Cl)cc4F)ccc3F)cc2NC(=O)c2c[nH]c(=O)cc2C(F)(F)F)C[C@H](C)N1C
Effect on: thermal unfolding
Method: differential scanning fluorimetry
Tested at: 5.5 µM
Reading: higher = more unfolded
WDR5: WD repeat-containing protein 5 (WDR5, Homo sapiens, UniProt P61964)
DCAF1: DDB1- and CUL4-associated factor 1 (DCAF1, Homo sapiens, UniProt Q9Y4B6)
Sequence of UniProt Q9Y4B6 (whole entry, looked up): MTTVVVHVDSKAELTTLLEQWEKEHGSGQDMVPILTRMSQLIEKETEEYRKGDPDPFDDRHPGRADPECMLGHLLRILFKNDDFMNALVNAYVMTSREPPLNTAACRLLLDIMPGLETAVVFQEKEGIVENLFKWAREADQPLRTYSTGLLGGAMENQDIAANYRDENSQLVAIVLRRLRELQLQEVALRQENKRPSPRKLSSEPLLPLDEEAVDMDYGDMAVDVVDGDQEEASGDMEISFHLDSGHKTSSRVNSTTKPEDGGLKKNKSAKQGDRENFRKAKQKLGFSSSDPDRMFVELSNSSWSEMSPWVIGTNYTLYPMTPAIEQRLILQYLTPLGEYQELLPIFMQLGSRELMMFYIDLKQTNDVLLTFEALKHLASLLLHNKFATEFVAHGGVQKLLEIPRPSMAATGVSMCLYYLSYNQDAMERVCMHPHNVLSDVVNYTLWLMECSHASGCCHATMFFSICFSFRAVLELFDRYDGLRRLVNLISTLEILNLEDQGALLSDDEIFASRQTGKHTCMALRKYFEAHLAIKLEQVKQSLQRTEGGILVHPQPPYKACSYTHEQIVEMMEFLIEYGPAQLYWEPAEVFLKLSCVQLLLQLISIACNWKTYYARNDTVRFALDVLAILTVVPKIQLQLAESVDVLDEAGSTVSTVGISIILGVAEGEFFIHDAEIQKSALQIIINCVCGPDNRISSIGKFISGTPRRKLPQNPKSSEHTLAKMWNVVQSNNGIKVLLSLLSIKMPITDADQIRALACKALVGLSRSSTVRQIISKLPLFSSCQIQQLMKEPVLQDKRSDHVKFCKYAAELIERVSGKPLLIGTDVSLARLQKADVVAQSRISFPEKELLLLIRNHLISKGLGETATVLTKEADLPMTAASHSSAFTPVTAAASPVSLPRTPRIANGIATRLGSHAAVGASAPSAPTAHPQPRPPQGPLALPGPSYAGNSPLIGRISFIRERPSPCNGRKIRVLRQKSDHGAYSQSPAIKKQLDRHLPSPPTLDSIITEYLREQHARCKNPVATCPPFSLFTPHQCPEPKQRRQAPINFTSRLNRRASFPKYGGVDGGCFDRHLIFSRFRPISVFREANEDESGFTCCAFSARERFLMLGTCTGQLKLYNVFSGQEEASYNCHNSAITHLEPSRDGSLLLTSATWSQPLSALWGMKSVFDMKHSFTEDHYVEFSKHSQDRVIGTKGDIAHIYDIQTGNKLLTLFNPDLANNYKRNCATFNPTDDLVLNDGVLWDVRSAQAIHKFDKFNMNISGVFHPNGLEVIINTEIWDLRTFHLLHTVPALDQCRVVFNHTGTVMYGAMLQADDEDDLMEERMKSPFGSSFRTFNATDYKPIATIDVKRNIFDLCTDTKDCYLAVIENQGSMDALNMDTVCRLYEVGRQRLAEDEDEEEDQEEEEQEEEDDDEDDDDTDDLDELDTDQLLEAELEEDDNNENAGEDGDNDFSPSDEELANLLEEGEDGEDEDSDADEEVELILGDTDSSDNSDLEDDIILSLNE
target | temperature | SYPRO Orange fluorescence
WDR5 | 66.41 °C | 14000 a.u.
DCAF1 | 81.81 °C | 43200 a.u.
DCAF1 | 80.21 °C | 45000 a.u.
WDR5 | 90.61 °C | 50400 a.u.
DCAF1 | 26.8 °C | 8870 a.u.
DCAF1 | 28.8 °C | 9230 a.u.
WDR5 | 72.01 °C | 19500 a.u.
WDR5 | 78.01 °C | 34400 a.u.
WDR5 | 85.81 °C | 53200 a.u.
DCAF1 | 90.01 °C | 35000 a.u.
DCAF1 | 88.61 °C | 36500 a.u.

Series 4
Compound: CN(C1COC1)C(C)(C)/C=C(\C#N)C(=O)N1CCC[C@H]1Cn1nc(-c2ccc(Oc3ccccc3)cc2F)c2c(N)ncnc21
PDPK1: 3-phosphoinositide-dependent protein kinase 1 (PDPK1, Homo sapiens, UniProt O15530)
Sequence of UniProt O15530 (whole entry, looked up): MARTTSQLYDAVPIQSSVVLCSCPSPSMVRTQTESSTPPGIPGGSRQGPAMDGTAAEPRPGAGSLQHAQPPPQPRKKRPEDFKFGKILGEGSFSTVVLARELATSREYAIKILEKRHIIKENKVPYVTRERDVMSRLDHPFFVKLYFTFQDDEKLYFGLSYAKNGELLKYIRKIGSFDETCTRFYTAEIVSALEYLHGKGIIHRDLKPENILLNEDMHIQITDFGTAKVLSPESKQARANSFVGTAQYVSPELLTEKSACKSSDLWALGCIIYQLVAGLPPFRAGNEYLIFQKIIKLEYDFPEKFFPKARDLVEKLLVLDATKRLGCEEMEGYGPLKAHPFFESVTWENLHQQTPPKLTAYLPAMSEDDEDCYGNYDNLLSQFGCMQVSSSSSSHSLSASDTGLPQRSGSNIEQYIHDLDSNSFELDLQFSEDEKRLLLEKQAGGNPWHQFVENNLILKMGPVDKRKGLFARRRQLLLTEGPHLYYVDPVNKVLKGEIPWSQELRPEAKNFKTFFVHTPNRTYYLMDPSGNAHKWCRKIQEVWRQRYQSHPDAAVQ
target | effect on | tested at | setting | inhibition [%]
MAPK9 (Homo sapiens, UniProt P45984) | kinase activity | 0.1 µM |  | -1
JAK3 (Homo sapiens, UniProt P52333) | kinase activity | 0.1 µM |  | -2
Aurora kinase B (AURKB, Homo sapiens, UniProt Q96GD4) | kinase activity | 1 µM |  | 4
MAPK11 (Homo sapiens, UniProt Q15759) | kinase activity | 1 µM |  | 3
PDPK1 | kinase activity | 0.1 µM |  | -6
RPS6KA1 (Homo sapiens, UniProt Q15418) | kinase activity | 1 µM |  | -2
TTK (Homo sapiens, UniProt P33981) | kinase activity | 1 µM |  | 5
PKN2 (Homo sapiens, UniProt Q16513) | kinase activity | 1 µM |  | 5
YES1 (Homo sapiens, UniProt P07947) | kinase activity | 1 µM |  | 67
FGFR3 (Homo sapiens, UniProt P22607) | kinase activity | 1 µM |  | 8
DDR2 (Homo sapiens, UniProt Q16832) | kinase activity | 0.1 µM |  | -10
PDPK1 | kinase activity | 1 µM |  | -3
AXL (Homo sapiens, UniProt P30530) | kinase activity | 0.1 µM |  | 1
CDK1 (Homo sapiens, UniProt P06493) | kinase activity | 0.1 µM |  | 6
PLK2 (Homo sapiens, UniProt Q9NYY3) | kinase activity | 1 µM |  | 3
FGFR2 (Homo sapiens, UniProt P21802) | kinase activity | 0.1 µM |  | 9
LATS2 (Homo sapiens, UniProt Q9NRM7) | kinase activity | 0.1 µM |  | 3
FGFR1 (Homo sapiens, UniProt P11362) | kinase activity | 0.1 µM |  | 7
PRKACB (Homo sapiens, UniProt P22694) | kinase activity | 1 µM |  | 11
Tyrosine-protein kinase Lyn, isoform A (LYN, Homo sapiens, UniProt P07948) | kinase activity | 1 µM |  | 19
CK1 |  | 1 µM | mean | 0

Series 5
SMILES: CCN1/C(=C/C=C2\CCCC(/C=C/C3=[N+](CC)c4ccccc4C3(C)C)=C2NCCCCCCCCN2CCC(Nc3nc4ccccc4n3Cc3ccc(F)cc3)CC2)C(C)(C)c2ccccc21
Cell line: U-87 MG
Tested at: concentration not given
Relative to: DMSO
measured | log2 fold change
COQ10B mRNA | 1.36
ANP32E mRNA | -1.41
CSRNP3 mRNA | -1.77
LMNB1 mRNA | -3.31
PNPLA8 mRNA | 1.31
SLC25A43 mRNA | -0.824
C6orf141 mRNA | -1.27
GPR17 mRNA | -7.07
ZIC1 mRNA | -0.935
PRC1 mRNA | -1.84
AKAP5 mRNA | -1.24
LIMS1 mRNA | 1.24
NCAPH mRNA | -1.61
FAM53C mRNA | 0.906
LRRC34 mRNA | -1.04
NUDT15 mRNA | -1.06

Series 6
Structure (SMILES): COCC1CC2C(CCC3(C)C(O)CCC23)c2ccc(O)cc21 (stereo not drawn)
Cell line: PANC-1
Method: DNA microarray
Tested at: concentration not given
Relative to: control
measured | fold change
CCL1 mRNA (probe A_23_P49759) | 1
UBD mRNA | 0.287
C6 mRNA | 1

Series 7
Compound: CN1CCC[C@H]1COc1nc2c(c(N3CCN(C(=O)C(F)(F)F)[C@@H](CC#N)C3)n1)CCN(c1cccc3cccc(Cl)c13)C2
Effect on: binding
Action: competitor
Method: NanoBRET
Cells: HEK293
KRAS Q61R: GTPase KRas (KRAS, Homo sapiens, UniProt P01116, Q61R)
KRAS G12D: GTPase KRas (KRAS, Homo sapiens, UniProt P01116, G12D)
target | tested at | normalized BRET
KRAS Q61R | 5.08 nM | 104% and 91.3% and 99.5%
KRAS G12D | 15.2 nM | 102% and 100% and 98.2%
GTPase KRas (KRAS, Homo sapiens, UniProt P01116, Q61H) | 11.1 µM | 27.7% and 35.1% and 21.9% and 52.7%
GTPase KRas (KRAS, Homo sapiens, UniProt P01116, Q61L) | 11.1 µM | 48.5% and 50.6% and 48.2%
KRAS G12D | 412 nM | 94.1% and 92.1% and 96.2%
KRAS G12D | 33.3 µM | 106% and 96.4% and 138%
GTPase KRas (KRAS, Homo sapiens, UniProt P01116, G13D) | 11.1 µM | 24.1% and 46.3% and 43.2% and 15.5%
KRAS Q61R | 3.7 µM | 78.7% and 103% and 80.3%
KRAS G12D | 1.24 µM | 91.5% and 92.5% and 90.8%
KRAS G12D | 11.1 µM | 101% and 96.5% and 138%

Series 8
SMILES: Cc1ncc(-c2cc3c(Cl)c(-c4c(C)ccc(O)c4C)cnc3[nH]2)cn1
Target: Membrane-associated tyrosine- and threonine-specific cdc2-inhibitory kinase (PKMYT1, Homo sapiens, UniProt Q99640)
Effect on: binding
Method: HTRF
Residues (Q99640 1-499): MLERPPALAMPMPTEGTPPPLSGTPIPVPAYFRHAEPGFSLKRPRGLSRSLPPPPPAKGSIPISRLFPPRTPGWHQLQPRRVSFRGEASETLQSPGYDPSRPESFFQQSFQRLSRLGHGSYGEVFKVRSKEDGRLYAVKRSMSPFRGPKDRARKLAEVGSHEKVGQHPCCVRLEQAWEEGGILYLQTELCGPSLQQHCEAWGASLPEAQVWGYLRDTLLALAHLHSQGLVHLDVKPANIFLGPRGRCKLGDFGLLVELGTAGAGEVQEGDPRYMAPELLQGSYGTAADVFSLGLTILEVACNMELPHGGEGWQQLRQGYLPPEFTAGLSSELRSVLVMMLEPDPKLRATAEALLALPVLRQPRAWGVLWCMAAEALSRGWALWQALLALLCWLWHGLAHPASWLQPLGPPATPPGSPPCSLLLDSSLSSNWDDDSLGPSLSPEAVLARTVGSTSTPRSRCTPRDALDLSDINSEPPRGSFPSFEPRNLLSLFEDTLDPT
tested at | inhibition
1111.11 nM | 84.7% and 81%
1.52 nM | -5.69% and -13.8%
41.15 nM | -3.64% and 1.31%
4.57 nM | -5.32% and -12%
13.72 nM | -0.2% and -8.52%

Series 9
Compound: CC[C@@]1(c2cccc(C(F)(F)F)c2)C2=C(Nc3n[nH]cc31)[C@H](F)C(C)(C)CC2=O (single isomer, unassigned)
Tested at: 1 µM
target | effect on | method | relative to | remaining binding
Macrophage colony-stimulating factor 1 receptor, autoinhibited (CSF1R, Homo sapiens, UniProt P07333) | kinase binding | KINOMEscan | DMSO control | 100%
EGFR (Homo sapiens, UniProt P00533) | binding | competition with immobilised ligand |  | 97%
CDK4 (Homo sapiens, UniProt P11802) | kinase binding | KINOMEscan | DMSO control | 79%
PDPK1 (Homo sapiens, UniProt O15530) | kinase binding | KINOMEscan | DMSO control | 100%
FLT3 (Homo sapiens, UniProt P36888, D835V) | kinase binding | KINOMEscan | DMSO control | 100%
KIT (Homo sapiens, UniProt P10721, D816V) | binding | competition with immobilised ligand |  | 100%
Tyrosine-protein kinase ABL1, phosphorylated (ABL1, Homo sapiens, UniProt P00519) | kinase binding | KINOMEscan | DMSO control | 70%
PIK3CB (Homo sapiens, UniProt P42338) | kinase binding | KINOMEscan | DMSO control | 100%
SGK3 (Homo sapiens, UniProt Q96BR1) | binding | competition with immobilised ligand |  | 100%
CRK2 (Plasmodium falciparum, UniProt P61075) | kinase binding | KINOMEscan | DMSO control | 100%
CDKL2 (Homo sapiens, UniProt Q92772) | binding | competition with immobilised ligand |  | 100%
TLK1 (Homo sapiens, UniProt Q9UKI8) | kinase binding | KINOMEscan | DMSO control | 85%
MAPK12 (Homo sapiens, UniProt P53778) | binding | competition with immobilised ligand |  | 100%
SLK (Homo sapiens, UniProt Q9H2G2) | kinase binding | KINOMEscan | DMSO control | 100%
EPHB3 (Homo sapiens, UniProt P54753) | binding | competition with immobilised ligand |  | 100%
RAF1 (Homo sapiens, UniProt P04049) | kinase binding | KINOMEscan | DMSO control | 100%
STK24 (Homo sapiens, UniProt Q9Y6E0) | binding | competition with immobilised ligand |  | 88%
CDK8 (Homo sapiens, UniProt P49336) | kinase binding | KINOMEscan | DMSO control | 100%
KIT (Homo sapiens, UniProt P10721) | kinase binding | KINOMEscan | DMSO control | 100%

Other studies, line by line
Target: Sodium-dependent neutral amino acid transporter B(0)AT1 (SLC6A19, Homo sapiens, UniProt Q695T7)
Sequence of UniProt Q695T7 (whole entry, looked up): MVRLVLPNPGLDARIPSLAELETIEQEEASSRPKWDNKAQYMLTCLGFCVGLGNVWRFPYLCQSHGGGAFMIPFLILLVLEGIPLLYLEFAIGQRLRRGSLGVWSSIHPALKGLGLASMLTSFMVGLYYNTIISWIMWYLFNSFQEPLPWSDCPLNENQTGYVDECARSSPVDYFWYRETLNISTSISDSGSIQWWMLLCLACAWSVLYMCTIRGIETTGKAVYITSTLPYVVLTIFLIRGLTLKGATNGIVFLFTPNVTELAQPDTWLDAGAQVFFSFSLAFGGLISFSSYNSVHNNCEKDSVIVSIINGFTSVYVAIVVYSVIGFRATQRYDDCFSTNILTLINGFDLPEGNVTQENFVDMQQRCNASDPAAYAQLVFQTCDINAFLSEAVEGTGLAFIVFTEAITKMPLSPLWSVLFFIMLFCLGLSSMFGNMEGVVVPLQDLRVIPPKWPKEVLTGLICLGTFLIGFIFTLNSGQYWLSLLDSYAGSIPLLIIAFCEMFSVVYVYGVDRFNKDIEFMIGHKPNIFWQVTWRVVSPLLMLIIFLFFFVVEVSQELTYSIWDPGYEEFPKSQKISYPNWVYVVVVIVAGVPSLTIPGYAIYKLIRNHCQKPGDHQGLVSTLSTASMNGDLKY
Action: inhibitor
Cells: CHO-BC cells
Compound | method | tested at | setting | quantity | result
CC(C)NC(=O)COc1ccc(Br)cc1 | L-[14C]leucine uptake |  | first repeat | IC50 | 8.53 µM
CCCNC(=O)COc1cc(C)c(Cl)c(C)c1 | L-[14C]leucine uptake |  | first repeat | IC50 | 1.8 µM
CC(C)NC(=O)COc1ccc(I)cc1 | L-[14C]leucine uptake |  | first repeat | IC50 | 3 µM
CON(C)C(=O)COc1cc(C)c(Cl)c(C)c1 | FLIPR membrane potential | 30 µM |  | normalised transport activity | 1.05

Repeated from above (series 3):
target | temperature | SYPRO Orange fluorescence
WDR5 | 72.01 °C | 19500 a.u.
DCAF1 | 88.61 °C | 36500 a.u.
DCAF1 | 26.8 °C | 8870 a.u.
WDR5 | 90.61 °C | 50400 a.u.
DCAF1 | 81.81 °C | 43200 a.u.
WDR5 | 85.81 °C | 53200 a.u.
DCAF1 | 80.21 °C | 45000 a.u.
DCAF1 | 28.8 °C | 9230 a.u.
WDR5 | 66.41 °C | 14000 a.u.
DCAF1 | 90.01 °C | 35000 a.u.
WDR5 | 78.01 °C | 34400 a.u.
